# Published values gathered from unrelated publications.
# Protocols differ between the studies behind these lines.
# Target: Dual serine/threonine and tyrosine protein kinase (DSTYK, Homo sapiens, UniProt Q6XUX3)
Compound,test,setting,scale,measurement,result
COc1c(Cl)cccc1Nc1c(-c2ccncc2C#C[C@@]2(C)CCCN2C(=O)/C=C/CN(C)C)[nH]c2c1C(=O)NCC2,"binding, competition with immobilised ligand",3 µM,,remaining binding,95%
Cc1cnc2nc1Nc1cccc(c1)COC/C=C/COCc1cc(ccc1OCCN1CCOCC1)N2,"binding, competition with immobilised ligand",0.1 µM,,remaining binding,93%
CNC(=O)C1CCN(c2cc(C)c(F)cc2NC(=O)c2ccc(-c3cc(O)ccc3C)c(C)c2)CC1,"binding, competition with immobilised ligand",1 µM,,remaining binding,69%
C=CC(=O)N1CCc2ccc(-n3c(=O)ccc4cnc5ccc(-c6cnn(C)c6)cc5c43)cc21,KINOMEscan,1 µM,reference: DMSO control,remaining binding,100%
NC(=O)[C@@H](O)C[C@H]1CCc2sc3ncnc(O[C@H]4CC[C@H](N5CCOCC5)CC4)c3c21,"enzyme activity, inhibitor",10 µM,,inhibition,1%
CCN1CCN(Cc2ccc(C(=O)Nc3ccc(C)c(NCc4cnc5[nH]ccc5c4OC)c3)cc2C(F)(F)F)CC1,"binding, competition with immobilised ligand",1 µM,,remaining binding,100%
CNC1C[S+]2CC[S+]3CC[S+](C1)[Ru-4]321([N]=C=S)[n]2c3ccc(OC)cc3c3c4c(c5cc(F)c[n+]1c5c32)C(=O)NC4=O (stereo not shown),KinomeScan,0.1 µM,reference: untreated,remaining binding,74%
Nc1ncc(-c2cc(-c3cnn(CC(F)(F)F)c3)ncc2F)nc1C(=O)NC1CNCC(F)C1 (stereo not shown),enzyme activity,1 µM,reference: DMSO control,remaining activity,95%
CC(C)=CC1OC(C)(C)C2C=C3C(=O)C(Cl)=CC(O)C3C3C(O)C4OC4C(=O)C132 (stereo not shown),"cell-free assay, competition with immobilised ligand",10 µM,,remaining binding,56%
NC(=O)C[C@H]1CCc2sc3ncnc(O[C@H]4CC[C@H](N5CCOCC5)CC4)c3c21,"enzyme activity, inhibitor",10 µM,,inhibition,3%
CCn1cc(C(=O)O)c(=O)c2c(N)c(F)c(NC3CCCCC3)cc21,kinase activity,"0.1 µM, added: ATP at Km",,inhibition,7.6%
COc1cc(Nc2nccc(-c3cnn4nc(OC)ccc34)n2)cc(C(F)(F)F)c1,"binding, competition with immobilised ligand",1 µM,,remaining binding,92%
Cc1ccc(-c2c(/C=C(\C#N)C(=O)NC(C)C)n(CCCO)c3ncnc(N)c23)cc1,"enzyme activity, inhibitor",1 µM,,remaining activity,87%
COc1cc(Nc2nc(C)cc(-c3cnn4nc(OC)ccc34)n2)cc(C(F)(F)F)c1,"binding, competition with immobilised ligand",1 µM,,remaining binding,79%
Nc1ncc2c(n1)-c1c([nH]c3ccc(C4=CCOCC4)cc13)CCC2,"binding, competition with immobilised ligand",1 µM,,remaining binding,6.9%
C=CC(=O)N1CCCC(n2c(=O)c3ncccc3n(Cc3ccc(Oc4ccccc4)cc3)c2=O)C1 (stereo not shown),"cell-free assay, competition with immobilised ligand",1 µM,,remaining binding,74%

# Some of these lines once more:
Compound,test,setting,scale,measurement,result
C=CC(=O)N1CCc2ccc(-n3c(=O)ccc4cnc5ccc(-c6cnn(C)c6)cc5c43)cc21,KINOMEscan,1 µM,reference: DMSO control,remaining binding,100%
